Measured values collected from several papers.
Each numbered part is a random draw from the data of one study; scales do not carry over between parts.
Sequence of UniProt Q9HBY8 (whole entry, looked up): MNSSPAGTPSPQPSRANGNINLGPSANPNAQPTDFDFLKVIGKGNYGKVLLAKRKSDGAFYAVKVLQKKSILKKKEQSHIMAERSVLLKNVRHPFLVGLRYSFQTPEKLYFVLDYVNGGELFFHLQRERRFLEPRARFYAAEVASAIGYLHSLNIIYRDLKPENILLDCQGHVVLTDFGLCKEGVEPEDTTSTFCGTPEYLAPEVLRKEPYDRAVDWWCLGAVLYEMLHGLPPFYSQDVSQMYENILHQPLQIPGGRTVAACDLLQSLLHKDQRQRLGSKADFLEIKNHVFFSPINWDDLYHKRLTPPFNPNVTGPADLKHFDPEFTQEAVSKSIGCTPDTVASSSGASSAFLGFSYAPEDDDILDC

Series 1 — technique: RNA Bind-n-Seq; form: RNA; sample: in vitro; tested at: 20 nM; setting: 6-mer, flanks averaged, single round; together with: 150 mM KCl; reference: input library; reading: higher = stronger binding
Target: TAR DNA-binding protein 43, full length, His tag (TARDBP, Homo sapiens, UniProt Q13148, residues 1-414)
`UAGUAC`: “6-mer enrichment (R)” 0.618.
`AGAAUU`: “6-mer enrichment (R)” 0.646.
For `CGUGUA`, “6-mer enrichment (R)” read 0.851.
Under “6-mer enrichment (R)”, `ACCUCC` is recorded as 0.593.
For `GUGCCU`, “6-mer enrichment (R)” read 0.846.
`CCUUUC`: “6-mer enrichment (R)” 0.597.
Under “6-mer enrichment (R)”, `CAACAU` is recorded as 0.61.
`UCCUCG` — result for “6-mer enrichment (R)”: 0.604.

Series 2 — technique: aptamer microarray, sandwich; form: DNA with 2'F-ANA; sample: in vitro; tested at: 200 nM; together with: Cy3 exosite-II aptamer, 400 nM; reading: higher = stronger binding; strand: GGTTGGTGTGGTTGG
Target: Prothrombin, mature alpha-thrombin (F2, Homo sapiens, UniProt P00734)
Setting: whole 15-mer aptamer, many near background
For `2'F-ANA at 1 3 4 7 8 10 11 13`, “mean fluorescence intensity” read 83.3 a.u.
`2'F-ANA at 3 4 5 6 7 8 9 12 15`: “mean fluorescence intensity” 211 a.u.
`2'F-ANA at 1 3 5 9 10 12 13 14` — result for “mean fluorescence intensity”: 49.3 a.u.
For `2'F-ANA at 1 2 3 7 8 12 13 14`, “mean fluorescence intensity” read 103 a.u.
`2'F-ANA at 4 5 7 8 9 10 12 15` — result for “mean fluorescence intensity”: 50.6 a.u.
`2'F-ANA at 6 7 8 10 11 12 14` — result for “mean fluorescence intensity”: 106 a.u.
`2'F-ANA at 1 4 6 7 8 9 10 11 12 13`: “mean fluorescence intensity” 54.3 a.u.
Under “mean fluorescence intensity”, `2'F-ANA at 1 3 7 8 10 11 14 15` is recorded as 59.4 a.u.

Series 3 — technique: protein-binding microarray; form: hairpin DNA; sample: in vitro; tested at: not given; reference: not given; reading: higher = stronger binding
Target: Homeobox protein Hox-B13, full length (HOXB13, Homo sapiens, UniProt Q92826, residues 1-284)
Sequence of UniProt Q92826 (whole entry, looked up): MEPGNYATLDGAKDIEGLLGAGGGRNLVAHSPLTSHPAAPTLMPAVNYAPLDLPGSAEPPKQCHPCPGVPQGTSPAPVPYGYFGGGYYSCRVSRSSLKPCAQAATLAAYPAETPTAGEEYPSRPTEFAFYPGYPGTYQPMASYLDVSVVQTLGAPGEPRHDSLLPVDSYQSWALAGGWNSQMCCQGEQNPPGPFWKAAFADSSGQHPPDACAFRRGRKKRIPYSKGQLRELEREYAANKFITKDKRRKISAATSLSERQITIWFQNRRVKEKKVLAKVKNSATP
Setting: whole hairpin DNA, median over replicate spots
`GAGGCCGTTTTATTGGCGCCTCCTGGCGCCAATAAAACGGCCTCACACTC` has a median fluorescence of 5030 a.u.
The median fluorescence of `GAGGCCCTTTTACGAGGGCCTCCTGGCCCTCGTAAAAGGGCCTCACACTC (5mC at 7)` is reported as 4670 a.u.
`GAGGCCCGTTTACGAGGGCCTCCTGGCCCTCGTAAACGGGCCTCACACTC` gave a median fluorescence of 5010 a.u.
For `GAGGCCGTTTTGTTGGGGCCTCCTGGCCCCAACAAAACGGCCTCACACTC`, the median fluorescence was 4150 a.u.
With `GAGGCCGTTTTACGAGGGCCTCCTGGCCCTCGTAAAACGGCCTCACACTC (5mC at 28)` the median fluorescence was 5140 a.u.

Other studies, line by line
For `CCCC(=O)Oc1ccc2[nH]c(C(=O)c3cc4ccccc4[nH]3)cc2c1`, the remaining activity was 99.4% (Serine/threonine-protein kinase Sgk2 (SGK2, Homo sapiens, UniProt Q9HBY8); enzyme activity, inhibitor; 0.5 µM; reference: control).

Excerpt of the above (series 3):
The median fluorescence of `GAGGCCCTTTTACGAGGGCCTCCTGGCCCTCGTAAAAGGGCCTCACACTC (5mC at 7)` is reported as 4670 a.u.
`GAGGCCCGTTTACGAGGGCCTCCTGGCCCTCGTAAACGGGCCTCACACTC` gave a median fluorescence of 5010 a.u.
